Results pooled from the literature.
Each numbered part is a random draw from the data of one study; scales do not carry over between parts. Changes are numbered by the printed parent chain.

Set 1
Target: CCND2, cyclin fold, Cln2 fusion (human)
Technique: yeast growth competition, sequencing
Sample: yeast
Setting: weak parent motif
Baseline: not given
Direction: higher = stronger binding
Starting sequence: E2F2 docking peptide (human); LPAKRKLDLEGIG
`E10A` — result for “normalised enrichment score”: 0.424.
`K4A` — result for “normalised enrichment score”: 0.858.
`I12A`: “normalised enrichment score” 0.523.
`L9A` — result for “normalised enrichment score”: 0.0134.
Under “normalised enrichment score”, `L1A` is recorded as 0.495.
`R5K L9F` — result for “normalised enrichment score”: 0.497.
For `G11A`, “normalised enrichment score” read 0.131.

Set 2
Target: ABI1, truncated, D143A, DHFR fusion (Arabidopsis thaliana)
Technique: DHFR PCA, deep sequencing
Sample: yeast
Setting: methotrexate growth selection, single substitutions
Added: (+)-ABA 2500 µM
Baseline: wild-type fitted maximum
Direction: higher = stronger binding
Starting sequence: PYL1, truncated, DHFR fusion (Arabidopsis thaliana); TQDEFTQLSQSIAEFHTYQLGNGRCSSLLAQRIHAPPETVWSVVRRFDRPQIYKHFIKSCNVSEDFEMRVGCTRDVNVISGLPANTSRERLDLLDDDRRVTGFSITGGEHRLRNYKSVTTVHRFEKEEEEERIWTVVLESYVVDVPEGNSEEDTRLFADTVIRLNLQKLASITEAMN
`I172F`: “relative binding score” 92.5%.
For `L138A`, “relative binding score” read 74.2%.
`V78P` — result for “relative binding score”: 89.6%.
`V145L`: “relative binding score” 93.4%.
`N114I`: “relative binding score” -6.47%.
`E67M` — result for “relative binding score”: 93.7%.
Under “relative binding score”, `L112H` is recorded as 5.93%.

Other studies, line by line
`IDH3B (Homo sapiens, UniProt O43837)` — result for interaction screen: “cross-linked” (IDH3A (Homo sapiens, UniProt P50213); cross-linking MS; hits only).
`PhoQ, residues 284 288 289 292 302 303 ALSMDL` gave a fold induction of 29.6 (PhoP, residues 12 14 15 18 19 TPWLV (Escherichia coli, UniProt P23836); Sort-seq, item: YFP reporter; E. coli; PhoQ-PhoP variant library, added: 10 µM Mg2+; baseline: high Mg2+ state, higher = stronger signaling).
`NME2 (Homo sapiens, UniProt P22392)` — result for cross-linked residues: “K85 to D115” (NME3 (Homo sapiens, UniProt Q13232); cross-linking MS; cell fractions; added: DMTMM).

Excerpt of the above (set 2):
`N114I`: “relative binding score” -6.47%.
`E67M` — result for “relative binding score”: 93.7%.
